Results from different studies.
A part holds a random share of what one study measured.
UniProt P08069, sequence (whole entry, looked up): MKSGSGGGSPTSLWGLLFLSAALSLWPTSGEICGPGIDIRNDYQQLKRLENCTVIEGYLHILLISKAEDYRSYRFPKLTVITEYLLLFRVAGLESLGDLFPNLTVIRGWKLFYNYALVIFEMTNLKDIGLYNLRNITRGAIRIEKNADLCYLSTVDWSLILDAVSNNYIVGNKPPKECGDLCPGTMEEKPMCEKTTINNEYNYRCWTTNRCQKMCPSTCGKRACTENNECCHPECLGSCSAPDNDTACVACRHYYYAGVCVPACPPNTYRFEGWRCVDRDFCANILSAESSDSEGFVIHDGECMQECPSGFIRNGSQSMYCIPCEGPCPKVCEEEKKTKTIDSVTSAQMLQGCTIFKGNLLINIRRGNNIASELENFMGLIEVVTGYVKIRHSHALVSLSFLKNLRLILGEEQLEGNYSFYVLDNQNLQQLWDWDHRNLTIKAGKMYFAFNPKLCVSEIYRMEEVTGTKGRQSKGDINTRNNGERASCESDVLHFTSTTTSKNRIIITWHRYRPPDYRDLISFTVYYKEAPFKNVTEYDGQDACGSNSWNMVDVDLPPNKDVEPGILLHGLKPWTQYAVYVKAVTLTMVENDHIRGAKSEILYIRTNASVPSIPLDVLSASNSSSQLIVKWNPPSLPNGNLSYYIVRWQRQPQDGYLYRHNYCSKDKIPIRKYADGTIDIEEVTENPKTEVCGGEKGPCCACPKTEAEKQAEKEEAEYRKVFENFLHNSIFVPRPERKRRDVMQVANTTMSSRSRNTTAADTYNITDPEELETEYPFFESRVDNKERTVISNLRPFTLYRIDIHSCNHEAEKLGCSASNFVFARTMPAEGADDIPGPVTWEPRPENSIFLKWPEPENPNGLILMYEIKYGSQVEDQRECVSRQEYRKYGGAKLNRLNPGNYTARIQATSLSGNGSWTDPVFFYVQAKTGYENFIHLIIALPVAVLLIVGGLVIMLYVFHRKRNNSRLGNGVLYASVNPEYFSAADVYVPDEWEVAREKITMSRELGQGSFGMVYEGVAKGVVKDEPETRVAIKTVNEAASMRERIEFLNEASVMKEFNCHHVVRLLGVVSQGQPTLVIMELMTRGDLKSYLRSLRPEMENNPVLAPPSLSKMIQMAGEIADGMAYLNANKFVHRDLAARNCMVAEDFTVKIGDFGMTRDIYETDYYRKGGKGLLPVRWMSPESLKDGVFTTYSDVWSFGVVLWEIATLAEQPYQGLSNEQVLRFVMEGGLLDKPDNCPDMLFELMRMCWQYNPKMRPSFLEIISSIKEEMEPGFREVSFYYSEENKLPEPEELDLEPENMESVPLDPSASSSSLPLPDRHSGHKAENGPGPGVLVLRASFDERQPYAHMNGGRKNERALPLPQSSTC
UniProt P08922, sequence (whole entry, looked up): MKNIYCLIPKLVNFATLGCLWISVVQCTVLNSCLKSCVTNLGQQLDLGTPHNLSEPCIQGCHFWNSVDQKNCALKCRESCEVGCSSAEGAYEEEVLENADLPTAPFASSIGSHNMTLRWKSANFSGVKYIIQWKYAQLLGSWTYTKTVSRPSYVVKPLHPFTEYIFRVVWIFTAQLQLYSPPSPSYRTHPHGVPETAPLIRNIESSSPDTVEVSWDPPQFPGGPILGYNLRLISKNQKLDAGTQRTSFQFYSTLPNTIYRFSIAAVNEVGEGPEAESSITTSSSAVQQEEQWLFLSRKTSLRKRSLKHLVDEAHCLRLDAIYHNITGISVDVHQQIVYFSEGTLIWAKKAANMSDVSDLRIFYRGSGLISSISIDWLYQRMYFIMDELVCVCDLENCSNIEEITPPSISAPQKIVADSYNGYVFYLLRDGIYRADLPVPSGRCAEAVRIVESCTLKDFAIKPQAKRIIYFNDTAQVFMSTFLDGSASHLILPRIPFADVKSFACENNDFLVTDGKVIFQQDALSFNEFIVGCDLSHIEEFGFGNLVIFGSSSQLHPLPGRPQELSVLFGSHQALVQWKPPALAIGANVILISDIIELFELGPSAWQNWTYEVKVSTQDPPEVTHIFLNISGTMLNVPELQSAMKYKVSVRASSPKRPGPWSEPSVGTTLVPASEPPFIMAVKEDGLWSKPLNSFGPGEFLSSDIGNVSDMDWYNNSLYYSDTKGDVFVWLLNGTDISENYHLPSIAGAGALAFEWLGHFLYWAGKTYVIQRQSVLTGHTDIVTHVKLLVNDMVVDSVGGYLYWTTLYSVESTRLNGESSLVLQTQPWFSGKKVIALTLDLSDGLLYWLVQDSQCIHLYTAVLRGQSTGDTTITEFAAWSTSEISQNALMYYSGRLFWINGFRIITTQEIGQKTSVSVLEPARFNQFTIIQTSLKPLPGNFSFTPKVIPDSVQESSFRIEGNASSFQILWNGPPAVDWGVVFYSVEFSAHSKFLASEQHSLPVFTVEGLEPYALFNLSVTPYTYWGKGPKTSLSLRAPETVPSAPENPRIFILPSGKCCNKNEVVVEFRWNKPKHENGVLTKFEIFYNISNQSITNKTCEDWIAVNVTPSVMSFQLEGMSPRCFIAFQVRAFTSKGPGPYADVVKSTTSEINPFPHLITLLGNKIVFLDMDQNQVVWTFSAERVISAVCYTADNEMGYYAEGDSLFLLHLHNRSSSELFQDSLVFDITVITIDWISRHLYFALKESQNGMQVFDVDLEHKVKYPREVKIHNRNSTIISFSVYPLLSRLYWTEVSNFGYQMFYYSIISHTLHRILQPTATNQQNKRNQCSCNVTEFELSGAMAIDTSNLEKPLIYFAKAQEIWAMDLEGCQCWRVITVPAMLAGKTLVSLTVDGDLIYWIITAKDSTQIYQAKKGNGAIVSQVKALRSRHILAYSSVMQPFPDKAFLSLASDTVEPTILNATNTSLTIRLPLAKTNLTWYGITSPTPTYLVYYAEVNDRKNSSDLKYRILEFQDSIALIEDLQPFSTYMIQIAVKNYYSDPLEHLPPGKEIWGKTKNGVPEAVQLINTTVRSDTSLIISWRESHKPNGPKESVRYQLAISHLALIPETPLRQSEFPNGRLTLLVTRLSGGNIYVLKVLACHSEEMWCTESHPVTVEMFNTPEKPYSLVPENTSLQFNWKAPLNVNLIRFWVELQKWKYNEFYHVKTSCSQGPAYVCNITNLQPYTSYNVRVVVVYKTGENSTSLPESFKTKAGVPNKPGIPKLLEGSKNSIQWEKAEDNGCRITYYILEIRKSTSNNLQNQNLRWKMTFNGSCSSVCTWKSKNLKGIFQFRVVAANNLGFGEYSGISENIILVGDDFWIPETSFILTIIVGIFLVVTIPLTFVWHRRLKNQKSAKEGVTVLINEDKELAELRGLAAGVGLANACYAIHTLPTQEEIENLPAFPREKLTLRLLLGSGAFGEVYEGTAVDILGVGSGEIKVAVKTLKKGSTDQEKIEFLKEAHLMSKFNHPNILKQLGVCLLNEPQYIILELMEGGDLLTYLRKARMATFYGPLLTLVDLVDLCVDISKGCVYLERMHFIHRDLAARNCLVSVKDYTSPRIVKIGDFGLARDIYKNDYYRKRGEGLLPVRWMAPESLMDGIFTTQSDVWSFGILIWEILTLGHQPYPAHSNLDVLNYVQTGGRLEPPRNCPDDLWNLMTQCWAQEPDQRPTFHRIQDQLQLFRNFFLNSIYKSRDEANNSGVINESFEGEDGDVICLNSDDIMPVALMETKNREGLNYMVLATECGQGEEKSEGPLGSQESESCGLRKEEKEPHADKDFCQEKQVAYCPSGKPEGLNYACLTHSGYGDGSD
UniProt Q13153, sequence (whole entry, looked up): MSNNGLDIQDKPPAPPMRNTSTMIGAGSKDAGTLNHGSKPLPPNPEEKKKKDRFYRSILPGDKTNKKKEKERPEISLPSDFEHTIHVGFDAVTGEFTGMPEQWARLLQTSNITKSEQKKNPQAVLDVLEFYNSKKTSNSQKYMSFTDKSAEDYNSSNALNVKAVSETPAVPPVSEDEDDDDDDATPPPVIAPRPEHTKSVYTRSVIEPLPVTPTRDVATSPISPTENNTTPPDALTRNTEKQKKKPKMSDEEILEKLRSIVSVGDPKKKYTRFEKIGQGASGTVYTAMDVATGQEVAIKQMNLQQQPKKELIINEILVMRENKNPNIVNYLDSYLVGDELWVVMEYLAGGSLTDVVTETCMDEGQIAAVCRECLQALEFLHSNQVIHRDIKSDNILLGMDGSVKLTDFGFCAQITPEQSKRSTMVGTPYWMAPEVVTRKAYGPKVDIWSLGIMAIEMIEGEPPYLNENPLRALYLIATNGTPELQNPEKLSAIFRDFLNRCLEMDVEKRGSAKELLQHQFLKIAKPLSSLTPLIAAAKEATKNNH
UniProt P51451, sequence (whole entry, looked up): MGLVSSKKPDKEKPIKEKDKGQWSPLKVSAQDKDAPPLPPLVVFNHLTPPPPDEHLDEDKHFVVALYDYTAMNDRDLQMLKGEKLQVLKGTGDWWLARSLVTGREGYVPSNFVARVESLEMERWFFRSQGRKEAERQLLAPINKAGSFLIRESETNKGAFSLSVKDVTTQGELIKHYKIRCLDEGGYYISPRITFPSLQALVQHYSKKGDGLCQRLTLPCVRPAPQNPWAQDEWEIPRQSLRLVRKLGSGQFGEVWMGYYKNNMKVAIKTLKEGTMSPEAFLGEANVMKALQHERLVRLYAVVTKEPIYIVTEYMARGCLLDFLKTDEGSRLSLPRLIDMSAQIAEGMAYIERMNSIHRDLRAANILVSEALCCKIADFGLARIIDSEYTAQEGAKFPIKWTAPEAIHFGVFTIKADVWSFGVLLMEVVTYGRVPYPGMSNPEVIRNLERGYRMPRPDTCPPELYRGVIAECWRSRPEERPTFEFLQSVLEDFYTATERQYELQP

Set 1
Target: Hepatocyte growth factor receptor (MET, Homo sapiens, UniProt P08581)
Read-out: enzyme activity
Mode: inhibitor
Concentration: 0.5 µM
Relative to: control
Measurement: remaining activity
O=C1NC(=O)C(c2cn(CCCn3ccnc3)c3ccccc23)=C1Nc1ccccc1: 100%
CC(C)[C@H](CO)Nc1nc(Nc2cc(N)cc(Cl)c2)c2ncn(C(C)C)c2n1: 109%
Nc1[nH]nc2nc3ccccc3nc12: 90.1%
Cc1cccc(-c2[nH]c(C(C)(C)C)nc2-c2ccc3c(c2)OCO3)n1: 82.7%
Cc1nc(-c2ccccc2)c(-c2ccncc2)o1: 102%
Nc1ncnc2n[nH]c(Nc3ccc(F)cc3)c12: 124%
O=C(O)c1ccc2c3c1cccc3c(=O)n1c3ccccc3nc21: 104%
O=C1NC(=O)C(c2cn(CCCO)c3ncccc23)=C1c1cnccn1: 121%
NCCNc1ncc(C(N)=O)c(Nc2cccc(C(F)(F)F)c2)n1: 106%
COc1ccc(OC)c2c(=S)c3ccccc3[nH]c12: 99.2%
COc1cc2nccc(Oc3ccc(NC(=S)NC(=O)c4ccccc4C)cc3)c2cc1OC: 60.4%

Set 2
Target: Centromere-binding protein 1, full length, His-tagged (CBF1, Saccharomyces cerevisiae, UniProt P17106, residues 1-351)
UniProt P17106, sequence (whole entry, looked up): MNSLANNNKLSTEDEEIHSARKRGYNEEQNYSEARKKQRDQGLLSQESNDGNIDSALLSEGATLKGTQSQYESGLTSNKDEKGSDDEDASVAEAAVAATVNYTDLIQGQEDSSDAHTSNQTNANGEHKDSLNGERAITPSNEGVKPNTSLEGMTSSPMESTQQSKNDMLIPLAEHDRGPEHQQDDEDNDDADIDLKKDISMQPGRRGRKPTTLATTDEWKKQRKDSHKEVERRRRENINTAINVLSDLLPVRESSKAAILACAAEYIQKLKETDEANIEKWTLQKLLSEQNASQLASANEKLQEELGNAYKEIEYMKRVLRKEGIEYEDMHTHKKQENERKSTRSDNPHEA
Technique: competition protein-binding microarray
Form: double-stranded DNA, one strand shown
Medium: in vitro
Concentration: 2 µM
Setting: whole 60-bp probe, lowest competitor level
Together with: Pho4 competitor, 0.05 µM
Direction: higher = stronger binding
Measurement: fluorescence intensity
All sequences stand within: … GTCTTGATTCGCTTGACGCTGCTG
GTTCAGTCCTCATATCATGTGATTCCCCTGGCTCTC: 651 a.u.
AAATGCAGCCAAAGATGCGTGCCGATGCAGTTAGCT: 67.3 a.u.
AGGCAAGGAGAGCACCATGTGCTGAGTCACAAATAC: 124 a.u.
ACTTTGGATTATCTGCTCGTGCAAATGAAATATACT: 182 a.u.
CTTTCCCGATCTTTTCACGTGCTGTTAGCACATTTG: 1000 a.u.
CTTTCCCGATCTTGTCACTGCACTTTAGCACATTTG: 74.9 a.u.
CTTTCCCGATCTTGTAGGGTGGGTGTAGCACATTTG: 78.6 a.u.
CATACCCAACCTTTTCACGTGTGCTAAGATATTTGT: 831 a.u.

Set 3
Target: Hepatocyte nuclear factor 3-beta, forkhead domain (FOXA2, Homo sapiens, UniProt Q9Y261, residues 142-269)
Technique: protein-binding microarray
Form: double-stranded DNA, one strand shown
Medium: in vitro
Concentration: not given
Setting: k-mer, scored over probes, only values ≥0.25
Direction: higher = stronger binding
Measurement: E-score
Construct (chain): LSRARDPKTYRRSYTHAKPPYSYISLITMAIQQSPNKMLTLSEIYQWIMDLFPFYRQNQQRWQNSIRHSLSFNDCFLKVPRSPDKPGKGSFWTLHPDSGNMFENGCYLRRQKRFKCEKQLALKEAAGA
AAAGTATG: 0.302
CGTATACA: 0.382
AATTTACT: 0.3
TGTCATAA: 0.281
CTATATAC: 0.369
AGTGTCAT: 0.272
GCTATATA: 0.272
TAAGCATA: 0.277

Set 4
Structure (SMILES): O=C(O)[C@@H]1[C@@H](Cn2nnc3ccccc3c2=O)CC[C@H]1C(=O)c1ccc(OCCC2CCOCC2)cc1
Read-out: cell-free assay
Technique: competition with immobilised ligand
Concentration: 1 µM
Measurement: remaining binding
Serine/threonine-protein kinase SIK3 (SIK3, Homo sapiens, UniProt Q9Y2K2): 84%
Serine/threonine-protein kinase PAK 1 (PAK1, Homo sapiens, UniProt Q13153): 95%
Insulin-like growth factor 1 receptor (IGF1R, Homo sapiens, UniProt P08069): 100%
Dual specificity mitogen-activated protein kinase kinase 4 (MAP2K4, Homo sapiens, UniProt P45985): 100%
Hepatocyte growth factor receptor (MET, Homo sapiens, UniProt P08581): 100%
5'-AMP-activated protein kinase catalytic subunit alpha-1 (PRKAA1, Homo sapiens, UniProt Q13131): 100%
Maternal embryonic leucine zipper kinase (MELK, Homo sapiens, UniProt Q14680): 85%
Tyrosine-protein kinase ABL1, phosphorylated (ABL1, Homo sapiens, UniProt P00519, T315I): 100%
Proto-oncogene tyrosine-protein kinase ROS (ROS1, Homo sapiens, UniProt P08922): 95%
Tyrosine-protein kinase Blk (BLK, Homo sapiens, UniProt P51451): 95%

For quick reference, copied from above (set 2):
GTTCAGTCCTCATATCATGTGATTCCCCTGGCTCTC: 651 a.u.
AAATGCAGCCAAAGATGCGTGCCGATGCAGTTAGCT: 67.3 a.u.
AGGCAAGGAGAGCACCATGTGCTGAGTCACAAATAC: 124 a.u.
